Experimental data of several laboratories.
Lines come from different studies, so protocols differ. Numbers after ± are the reported error.

For `O=C(/C=C/c1cccc(S(=O)(=O)Nc2ccccc2)c1)NO`, the half-life was 2.12 h (human mild liver dysfunction, plasma; intravenous, 400 mg/m^2, 30 min infusion, cycle 1 day -7).
The half-life of `CO[C@H]1C[C@@H]2CC[C@@H](C)[C@@](O)(O2)C(=O)C(=O)N2CCCC[C@H]2C(=O)O[C@H]([C@H](C)C[C@@H]2CC[C@@H](O)[C@H](OC)C2)CC(=O)[C@H](C)/C=C(\C)[C@@H](O)[C@@H](OC)C(=O)[C@H](C)C[C@H](C)/C=C/C=C/C=C/1C` is reported as 25 h (human, whole blood; oral, 16 mg, without ketoconazole).
With `CCN(CC)CCNC(=O)c1c(C)[nH]c(/C=C2\C(=O)Nc3ccc(F)cc32)c1C` the half-life was 71.1 ± 33.5 h (human, cancer patients on efavirenz, plasma; oral, 50 mg/day).
With `CN(C)C(=O)c1cc2cnc(Nc3ccc(N4CCNCC4)cn3)nc2n1C1CCCC1` the half-life was 50.2 h (human, moderate renal impairment, plasma; oral, 400 mg, geometric mean).
For `CN1CC[C@@H](NC(=O)Nc2ccc(C#N)cc2)C[C@@H]1c1nc2ccccc2[nH]1`, the half-life was 18.7 ± 1.8 h (refers to: total compound; human, normal hepatic function, plasma; oral, 100 mg, fasted, single dose, arithmetic mean).
`O=C(c1cccnc1-c1ccncc1)N1CCC(O)(Cc2ccccc2)CC1` gave a half-life of 4.67 h (healthy human, plasma; oral, 400 mg once daily, day 1, arithmetic mean).
`CCOc1ccc(Cc2cc([C@@H]3S[C@H](CO)[C@@H](O)[C@H](O)[C@H]3O)c(OC)cc2C)cc1` has a half-life of 10.7 ± 2.4 h (human, plasma; oral, 5 mg/day, day 7, multiple dose before breakfast).
`C=CC(=O)N1CCC([C@@H]2CCNc3c(C(N)=O)c(-c4ccc(Oc5ccccc5)cc4)nn32)CC1` gave a half-life of 5.3 h (human; oral, 160 mg, single dose, mean).
`CCS(=O)(=O)N1CC(CC#N)(n2cc(-c3ncnc4[nH]ccc34)cn2)C1` has a half-life of 7.36 h (healthy Chinese human subjects, plasma; oral, 4 mg, single dose, mean).
With `Cc1cccc(C)c1OCC(=O)N[C@@H](Cc1ccccc1)[C@@H](O)C[C@H](Cc1ccccc1)NC(=O)[C@H](C(C)C)N1CCCNC1=O` the half-life was 6.5 h (human, HIV+/HCV+, plasma; oral, total drug, steady state, median, with: lopinavir/ritonavir twice daily).
With `Cc1ccc(NC(=O)c2ccc(CN3CCNCC3)cc2)cc1Nc1nccc(-c2cccnc2)n1` the half-life was 36.2 h (human, plasma; 400 mg/day imatinib, day 10 of cycle 1, metabolite of imatinib alone, mean).
`CO[C@H]1C[C@@H]2CC[C@@H](C)[C@@](O)(O2)C(=O)C(=O)N2CCCC[C@H]2C(=O)O[C@H]([C@H](C)C[C@@H]2CC[C@@H](OC(=O)C(C)(CO)CO)[C@H](OC)C2)CC(=O)[C@H](C)/C=C(\C)[C@@H](O)[C@@H](OC)C(=O)[C@H](C)C[C@H](C)/C=C/C=C/C=C/1C` has a half-life of 15.6 h (human; intravenous, 60 mg/m^2 weekly, cycle 1, median, with: valproic acid).
`CCCC[C@H](NC(C)=O)C(=O)N[C@H]1CCC(=O)NC[C@@H](C(=O)N[C@@H](Cc2c[nH]c3ccccc23)C(N)=O)NC(=O)[C@H](CCCNC(=N)N)NC(=O)[C@@H](Cc2ccccc2)NC(=O)[C@H](Cc2c[nH]cn2)NC1=O` has a half-life of 12.6 h (healthy human volunteers, plasma; subcutaneous, 3.0 mg once daily, day 7).
The half-life of `CC(C)(C)OC[C@@H]1C(=O)NCCN1C(=O)C[C@H](N)Cc1cc(F)c(F)cc1F` is reported as 35.5 ± 12.9 h (human, male, plasma; oral, single dose, fixed-dose combination with metformin, fed).
With `CCOc1cc([C@@H](CS(C)(=O)=O)N2C(=O)c3cccc(NC(C)=O)c3C2=O)ccc1O[C@@H]1O[C@H](C(=O)O)[C@@H](O)[C@H](O)[C@H]1O` the half-life was 15.5 h (healthy human controls, plasma; oral, 30 mg apremilast, matched to moderate impairment).
For `Cc1[nH]c2ccccc2c1CCNCc1ccc(/C=C/C(=O)NO)cc1`, the half-life was 15.7 h (human, plasma; oral, 20 mg, fed, normal breakfast).
`C[C@H](N)C(=O)N1C[C@H](CCCB(O)O)[C@](N)(C(=O)O)C1` gave a half-life of 6.1 ± 1.6 h (human, plasma; oral, dose not given, cycle 1 day 15, multiple dosing, all doses pooled).
For `Cc1ccc(NC(=O)c2ccc(CN3CCN(C)CC3)cc2)cc1Nc1nccc(-c2cncc(-c3oncc3C)c2)n1`, the half-life was 28.5 h (older healthy human adults, plasma; oral, 75.0 mg single dose, fed, mean).

Some of these lines once more:
`C[C@H](N)C(=O)N1C[C@H](CCCB(O)O)[C@](N)(C(=O)O)C1` gave a half-life of 6.1 ± 1.6 h (human, plasma; oral, dose not given, cycle 1 day 15, multiple dosing, all doses pooled).
